Assay results collected from several papers.
Compare with care: the assays were run in different laboratories.

SMILES | tested on | test | test system | conditions | quantity | value
N[C@@H]1c2ccccc2OC12CCN(c1cnc3c(N4CCCc5ncccc54)n[nH]c3n1)CC2 |  | item: Anemia | human advanced or metastatic solid tumours | oral, 60 mg once daily, phase Ia pooled cohort | patients with treatment-related adverse event | 12%
CN1[C@@H]2CC[C@H]1C[C@@H](OC(=O)c1cc(Cl)cc(Cl)c1)C2 | Plasmodium falciparum |  | 7G8 |  | IC50 | 5.01 µM
Cc1cn([C@H]2O[C@@H](CO[P@@](=O)(N[C@@H](C)C(=O)OC(C)C)Oc3ccccc3)[C@H](O)[C@H]2F)c(=O)[nH]c1=O |  | item: Fatigue | human | 50 mg | patients with TEAE | 0%
C[C@]1(O)C[C@@](N)(c2ccc(-c3nc4n(c3-c3ccccc3)COc3ccncc3-4)cc2)C1 |  |  | human, advanced or metastatic solid tumours | intermittent, dose escalation total, any grade | patients with Hyperglycemia TEAE | 42.9%
COc1ccc(-c2c(-c3ccc(C#N)c(F)c3)nc(N3CCC(N)CC3)n(C)c2=O)cc1F |  | item: weight decreased | human patients | oral, dose not given, dose escalation | patients with serious TEAE | 2%
Cn1cncc1-c1c(F)cncc1NC(=O)c1c(N)nn2cc(F)cnc12 |  |  | human patients | oral, 220 mg once daily, 2 weeks on 1 week off | patients grade ≥3 white cell decrease | 0%
C=CC(=O)Nc1cc(Nc2nccc(Nc3cc(Cl)c(F)cc3C(C)(C)O)n2)c(OC)cc1N1CC[C@@H](N(C)C)C1 |  |  | human patients | oral, 200 mg, treatment-emergent adverse events | patients with decreased appetite | 12.5%
C[C@@H]1OC(=O)NN=C1c1ccc(-c2ccc(F)cc2)c(C(F)(F)F)c1 |  | phase I trial, item: Ascites all grades | human patients | 10 mg loading then 0.5 mg daily | patients with adverse event | 0%
O=C1Nc2cc3[nH]nc(-c4ccncc4)c3cc2CN1Cc1ccccc1 |  | CTCAE v4.03 | human, relapsed or refractory advanced solid tumours | intravenous, 4.8 mg/kg, pooled schedules | patients with vomiting | 25%
COc1ncnn2ccc(-c3cnc4nc(C)n(Cc5nnc([C@@H](C)F)o5)c4c3)c12 |  |  | human | oral, dose not given, grade 3 | patients with hyponatremia | 0%
CN(C)C(=O)c1cc2cnc(Nc3ccc(N4CCNCC4)cn3)nc2n1C1CCCC1 |  | item: Reproductive toxicity, AESI | human, HR+/HER2− advanced breast cancer | oral, dose not given, grade 4, CTCAE v4.03 | patients with adverse event | 0%

A few entries again:
SMILES | tested on | test | test system | conditions | quantity | value
N[C@@H]1c2ccccc2OC12CCN(c1cnc3c(N4CCCc5ncccc54)n[nH]c3n1)CC2 |  | item: Anemia | human advanced or metastatic solid tumours | oral, 60 mg once daily, phase Ia pooled cohort | patients with treatment-related adverse event | 12%
